Published values of several laboratories.
Each line is one published result; not all experiments were run side by side. Values joined by “and” are separate records of one study, mostly repeats; a detail may differ. ± marks the error that the study gave.

With CNC(=O)c1cc(Oc2ccc(NC(=O)Nc3cc(C(C)(C)C)nn3-c3ccc4ncccc4c3)c(F)c2)ccn1 the related SAE was 3% (intraocular pressure increased, NCI CTC v3.0; human patients; oral, 150 mg twice daily, tablet, dose at onset).
C[C@@H]1OC(=O)NN=C1c1ccc(-c2ccc(F)cc2)c(C(F)(F)F)c1: “patients with adverse event” 0% (phase I trial, measured: AST increased worst grade 1; human patients; 5 mg loading then 0.25 mg daily).
CC(C)N(CCc1c[nH]c2cccc(OC(=O)CCCC(=O)O)c12)C(C)C.Cl has a Cmax of 1870 ng/mL (male beagle dog, plasma; intravenous, 1 mg/kg).
For O=C(Oc1ccc(F)cc1)[c-]1cccc1.[Fe+2].c1cc[cH-]c1, the oxidation potential was 566 mV (cyclic voltammetry; methanol/DMEM 1:1 with TBAPF6; Pt disk electrode, Ag/AgCl reference, with: scan rate 100 mV/s).
With CC(C)C[C@H](NC(=O)[C@H](CCCCN)NC(=O)OCC1c2ccccc2-c2ccccc21)C(=O)N[C@H](C(=O)N[C@@H](Cc1ccccc1)C(=O)N[C@@H](Cc1ccccc1)C(=O)N[C@@H](CCCCN)C(=O)NCC(=O)N[C@@H](Cc1ccccc1)C(=O)N[C@@H](C)C(=O)N[C@@H](Cc1c[nH]c2ccccc12)C(=O)N[C@@H](CC(N)=O)C(=O)N[C@H](C(=O)N[C@H]1CSSC[C@@H](C(=O)N[C@@H](Cc2c[nH]cn2)C(=O)N[C@@H](CCCNC(=N)N)C(=O)N[C@@H](CCCNC(=N)N)C(=O)N[C@@H](C)C(=O)N[C@@H](CC(N)=O)C(N)=O)NC(=O)[C@H](C(C)C)NC(=O)[C@H](CCCNC(=N)N)NC(=O)[C@H](C(C)C)NC(=O)CNC(=O)[C@H](CC(N)=O)NC(=O)[C@H](CCCNC(=N)N)NC(=O)[C@H](Cc2ccc(O)cc2)NC(=O)[C@H](C(C)C)NC1=O)C(C)C)C(C)C the albumin was 34.6 ± 2.14 g/L (ICR mice, serum; intraperitoneal, 10 mg/kg, day 5).
CCc1ccc(CC/C=C/c2ccc3c(c2)C(=O)CC3)cc1 — result for “ALT serum activity”: 59.7 U/L (Sprague-Dawley rat, female; oral, 120 mg/kg/day, 14 days).
For COc1ncccc1-c1cnn2ccc(N3CCN(C(=O)OC(C)C)CC3)nc12, the drug concentration was 8.9 µM (mouse nerve ligation model, brain; oral, 10 mg/kg, 30 min after last dose, repeat dosing day 2).
O=C(O)CCCOc1ccc(F)cc1-c1cc(-c2ccccc2C(F)(F)F)n(-c2ccccc2)n1: “relative organ weight” 0.74 ± 0.08 g% (male Crl:CD(SD) rats, kidneys; intravenous, 25 µg/kg, 14 d).
Under “patients with adverse event”, CN1CC[C@@H](c2c(O)cc(O)c3c(=O)cc(-c4ccc(C(F)(F)F)cc4Cl)oc23)[C@@H]1CO is recorded as 10% (measured: Hypotension; relapsed AML; oral, 200 mg, grade 3-4, intermittent dosing).
O=C1Nc2cc3[nH]nc(-c4ccncc4)c3cc2CN1Cc1ccccc1: “patients with ≥1 TEAE” 100% (CTCAE v4.03; advanced solid tumour patients; intravenous, 0.45 mg/kg, schedules 1/2).
C=CC(=O)Nc1cc(Nc2ncc(C(=O)OC(C)C)c(-c3cn(C)c4ccccc34)n2)c(OC)cc1N(C)CCN(C)C — result for “fatal heart failure”: 0.4% (pooled safety population; 160 mg once daily, one case).
The long-term stability of O=c1nc(NO)ccn1[C@@H]1O[C@H](CO)[C@@H](O)[C@H]1O is reported as 102.8 ± 0.47% (rat maternal placenta dialysate; 1000 ng/mL, more than 4 weeks, -20 °C, high concentration, with: molnupiravir 250 ng/mL).
CC(C)NCCCC[C@@H]1NC(=O)[C@H](Cc2ccc(O)cc2)NC(=O)[C@H](Cc2ccccc2)NC(=O)CC[C@H](C(=O)N[C@@H](CCCCNC(C)C)C(=O)N[C@@H](CCCCNC(=O)[C@H](CCC(=O)O)NC(=O)[C@H](CCC(=O)O)NC(=O)[C@H](CCC(=O)O)NC(=O)CN2CCN(CC(=O)O)CCN(CC(=O)O)CC2)C(N)=O)NC(=O)CNC(=O)[C@H](Cc2ccc3ccccc3c2)NC(=O)[C@@H](CCCNC(=N)N)NC1=O [fluorine-18 labelled] has an SUV of 0.73 ± 0.09 g/mL (PET; mouse, naive, bone; 57.5 min post-injection).
Under “adverse drug reaction incidence”, C=CC(=O)N1CC[C@H](n2nc(C#Cc3cc(OC)cc(OC)c3)c3c(N)ncnc32)C1 is recorded as 16.3% (patients with advanced solid tumours; oral, dose not given, Diarrhea, any grade, QD, all patients).
O=C(NCCCN1CCCCCC1)c1ccc2c(c1)sc1nc(-c3ccccc3)cn12 has a cytotoxicity efficacy of -33.3% (Vero-E6; CellTiter-Glo ATP; concentration not given, 72 h, second round 5-point; baseline: DMSO 0%, hyamine -100%, more negative, more toxic).
For CC(C)n1c(C2CCNCC2)nc2c([N+](=O)[O-])c(Br)c(Br)cc21, “related grade ≥3 adverse events” read 8% (measured: Thrombocytopenia; AML patients; dose not given, all doses).
C=CC(=O)Nc1cc(Nc2nccc(Nc3cc(Cl)c(F)cc3C(C)(C)O)n2)c(OC)cc1N1CC[C@@H](N(C)C)C1: “patients with lipase increased” 6.3% (human patients; oral, 200 mg, treatment-emergent adverse events).
CC(C)Nc1ccnc(Nc2cccc(-c3cccnc3)c2)n1 gave a blood chemistry of 3.6 g/dL (measured: albumin; mouse, blood; intraperitoneal, 10 mg/kg).
NCCCC[C@@H]1NC(=O)[C@@H](Cc2c[nH]c3ccccc23)NC(=O)[C@H](c2ccccc2)NC(=O)[C@@H]2C[C@@H](OC(=O)NCCN)CN2C(=O)[C@H](Cc2ccccc2)NC(=O)[C@H](Cc2ccc(OCc3ccccc3)cc2)NC1=O: “QTcI change from baseline” 8.3 ms (healthy volunteers; subcutaneous, 600 µg twice daily, day 5, 2.00 h).
O=[Se](=O)([O-])[O-].[Na+].[Na+] has a half-life of 4.21 h (rat; subcutaneous, 0.04 mg/kg).
CO[C@H]1C[C@@H]2CC[C@@H](C)[C@@](O)(O2)C(=O)C(=O)N2CCCC[C@H]2C(=O)O[C@H]([C@H](C)C[C@@H]2CC[C@@H](OC(=O)NCCOCCOCCOCCOCCOCCOCCOCCOCCC(=O)N3CCc4cc(Cn5nc(-c6ccc7oc(N)nc7c6)c6c(N)ncnc65)ccc4C3)[C@H](OC)C2)C[C@@H](O)[C@H](C)/C=C(\C)[C@@H](O)[C@@H](OC)C(=O)[C@H](C)C[C@H](C)/C=C/C=C/C=C/1C: “AE leading to dose reduction” 25% (patients with advanced solid tumours; intravenous, 10 mg weekly, any grade).
For O=S(=O)(Nc1ccccc1)c1ccc(NC(=S)Nc2ccccc2)cc1, the haemoglobin was 10.2 g/dL (female mouse, blood; oral, 20 mg/kg daily, 14 days).
For CC(C)[C@H](C(=O)O[C@H](C#N)c1cccc(Oc2ccccc2)c1)c1ccc(Cl)cc1, “enzyme contribution to clearance” read 2.11% (measured: CYP2C19; human, age 6 months).
The Tinnitus incidence of CCN1[C@@H](C(=O)NC23CCC(C(=O)O)(CC2)CC3)[C@H](c2cccc(Cl)c2F)[C@]2(C(=O)Nc3cc(Cl)ccc32)C12CCCCC2 is reported as 0% (patients with advanced solid tumours; oral, 200 mg).
O=C(Nc1ccccc1)C1CCN(C(=O)Oc2cccnc2)CC1: “adverse event Lethargy” 7.7% (healthy women; oral, 100 mg, 9 days).
COc1cc2c(Oc3ccc4[nH]c(C)cc4c3F)ccnc2cc1OCC1(N)CC1: “grade 1 or 2 Tinnitus” 0% (paediatric recurrent refractory sarcoma; 8 mg/kg).
The Cmax of CCC[C@@](N)(CO)CCc1ccc(OCCCCCC(C)C)cc1 is reported as 0.112 µM (dog, male hounds, plasma; oral capsule, 2.5 mg/kg, geometric mean).
Under “patients with any TEAE”, C[C@]1(O)C[C@@](N)(c2ccc(-c3nc4n(c3-c3ccccc3)COc3ccncc3-4)cc2)C1 is recorded as 94.1% (human, advanced or metastatic solid tumours; dose not given, all patients).
C=CC[N+]1([C@H]2C[C@H]3[C@@H]4CC[C@H]5C[C@H](O)[C@@H](N6CCOCC6)C[C@]5(C)[C@H]4CC[C@]3(C)[C@H]2OC(C)=O)CCCC1 has a terminal half-life of 0.305 h (Sprague Dawley rat, plasma; intravenous, dose not given, with: sugammadex 5 mg/kg).
O=c1cc(-c2ccc(O)c(O)c2)oc2cc(O)cc(O)c12: “faecal excreted amount” 32.2 ± 11.2 ng (male Sprague-Dawley rat, obese; oral, 100 mg/kg of neohesperidin, 0 to 12 h).
Under “treatment-related facial nerve disorder incidence”, CN[C@@H](C)C(=O)N[C@H]1CN(S(=O)(=O)c2cccc(S(=O)(=O)N3CC[C@H]4CC[C@@H](C(=O)NC(c5ccccc5)c5ccccc5)N4C(=O)[C@@H](NC(=O)[C@H](C)NC)C3)c2)CC[C@H]2CC[C@@H](C(=O)NC(c3ccccc3)c3ccccc3)N2C1=O is recorded as 0% (patients with advanced solid tumours; 4 mg, phase I monotherapy).
CNC(=O)n1ccc2cc(Oc3ccnc(NC(=O)c4ccc(C5CCN(CCO)CC5)cc4)c3)c(OCCOC)cc21 gave an AUC(0-t) reduction of roughly 23% (healthy human, plasma; oral, 35 mg, with: high-fat meal; baseline: fasted).
For COc1cccc(Oc2ccccc2NC(=O)CNC(=O)c2cccc3ccccc23)c1, the serum potassium was 7.3 mmol/L and 8.7 mmol/L and 9.1 mmol/L (esterase-deficient SCID mice, male; oral, 40 mg/kg/day, 14 days, toxicity study).
For Clc1ccc(C(c2ccccc2Cl)C(Cl)Cl)cc1 (stereo not shown), “time to plasma concentration below 2 mg/L” read greater than 3 months (human; dose not given).
CC(=O)c1c(C)c2cnc(Nc3ccc(C4CCN(CCS(C)(=O)=O)CC4)cn3)nc2n(C2CCCC2)c1=O gave a CL of 824 to 3190 mL/min (human, plasma; oral, dose not given, steady state, continuous dosing, range over doses).
For Cn1cncc1-c1c(F)cncc1NC(=O)c1c(N)nn2cc(F)cnc12, “grade ≥3 white cell decrease incidence” read 25% (human patients; oral, 270 mg once daily).
With C[C@]1(CO)Cc2ncn(-c3ccc(C#N)c(Cl)c3)c2C(=O)O1 the half-life was 5.5 h (human, plasma; 20 mg single dose, geometric mean).

For quick reference, copied from above:
CC(C)Nc1ccnc(Nc2cccc(-c3cccnc3)c2)n1 gave a blood chemistry of 3.6 g/dL (measured: albumin; mouse, blood; intraperitoneal, 10 mg/kg).
NCCCC[C@@H]1NC(=O)[C@@H](Cc2c[nH]c3ccccc23)NC(=O)[C@H](c2ccccc2)NC(=O)[C@@H]2C[C@@H](OC(=O)NCCN)CN2C(=O)[C@H](Cc2ccccc2)NC(=O)[C@H](Cc2ccc(OCc3ccccc3)cc2)NC1=O: “QTcI change from baseline” 8.3 ms (healthy volunteers; subcutaneous, 600 µg twice daily, day 5, 2.00 h).
O=[Se](=O)([O-])[O-].[Na+].[Na+] has a half-life of 4.21 h (rat; subcutaneous, 0.04 mg/kg).
CO[C@H]1C[C@@H]2CC[C@@H](C)[C@@](O)(O2)C(=O)C(=O)N2CCCC[C@H]2C(=O)O[C@H]([C@H](C)C[C@@H]2CC[C@@H](OC(=O)NCCOCCOCCOCCOCCOCCOCCOCCOCCC(=O)N3CCc4cc(Cn5nc(-c6ccc7oc(N)nc7c6)c6c(N)ncnc65)ccc4C3)[C@H](OC)C2)C[C@@H](O)[C@H](C)/C=C(\C)[C@@H](O)[C@@H](OC)C(=O)[C@H](C)C[C@H](C)/C=C/C=C/C=C/1C: “AE leading to dose reduction” 25% (patients with advanced solid tumours; intravenous, 10 mg weekly, any grade).
For O=S(=O)(Nc1ccccc1)c1ccc(NC(=S)Nc2ccccc2)cc1, the haemoglobin was 10.2 g/dL (female mouse, blood; oral, 20 mg/kg daily, 14 days).
For CC(C)[C@H](C(=O)O[C@H](C#N)c1cccc(Oc2ccccc2)c1)c1ccc(Cl)cc1, “enzyme contribution to clearance” read 2.11% (measured: CYP2C19; human, age 6 months).
